Results collected from several papers.
Every numbered part comes from another study and shows a few of its results, in no order. Substitutions count along the parent as printed.
UniProt P30530, sequence (whole entry, looked up): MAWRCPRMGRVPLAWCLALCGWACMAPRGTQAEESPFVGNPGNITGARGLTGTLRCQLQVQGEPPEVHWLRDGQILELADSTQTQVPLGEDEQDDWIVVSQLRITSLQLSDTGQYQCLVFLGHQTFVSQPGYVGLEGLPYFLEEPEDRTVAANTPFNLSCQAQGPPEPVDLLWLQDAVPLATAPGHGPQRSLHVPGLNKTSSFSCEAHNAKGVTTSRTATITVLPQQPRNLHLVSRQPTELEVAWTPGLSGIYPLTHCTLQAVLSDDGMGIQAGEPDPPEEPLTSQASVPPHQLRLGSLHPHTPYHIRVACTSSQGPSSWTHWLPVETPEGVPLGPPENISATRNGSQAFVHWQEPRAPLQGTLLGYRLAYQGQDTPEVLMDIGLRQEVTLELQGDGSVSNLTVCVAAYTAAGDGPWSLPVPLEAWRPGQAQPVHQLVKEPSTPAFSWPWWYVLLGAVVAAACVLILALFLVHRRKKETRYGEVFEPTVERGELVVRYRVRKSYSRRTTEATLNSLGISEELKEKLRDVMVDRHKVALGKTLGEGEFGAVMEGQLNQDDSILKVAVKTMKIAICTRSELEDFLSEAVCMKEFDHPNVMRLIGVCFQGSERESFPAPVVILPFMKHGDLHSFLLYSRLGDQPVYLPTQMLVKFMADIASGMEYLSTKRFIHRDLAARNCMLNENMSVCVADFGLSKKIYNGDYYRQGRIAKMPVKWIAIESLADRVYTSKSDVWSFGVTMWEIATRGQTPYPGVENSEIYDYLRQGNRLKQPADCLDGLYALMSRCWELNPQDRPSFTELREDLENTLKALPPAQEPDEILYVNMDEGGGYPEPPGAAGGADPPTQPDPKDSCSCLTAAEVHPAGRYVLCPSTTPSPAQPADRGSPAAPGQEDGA
UniProt Q9H2X6, sequence (whole entry, looked up): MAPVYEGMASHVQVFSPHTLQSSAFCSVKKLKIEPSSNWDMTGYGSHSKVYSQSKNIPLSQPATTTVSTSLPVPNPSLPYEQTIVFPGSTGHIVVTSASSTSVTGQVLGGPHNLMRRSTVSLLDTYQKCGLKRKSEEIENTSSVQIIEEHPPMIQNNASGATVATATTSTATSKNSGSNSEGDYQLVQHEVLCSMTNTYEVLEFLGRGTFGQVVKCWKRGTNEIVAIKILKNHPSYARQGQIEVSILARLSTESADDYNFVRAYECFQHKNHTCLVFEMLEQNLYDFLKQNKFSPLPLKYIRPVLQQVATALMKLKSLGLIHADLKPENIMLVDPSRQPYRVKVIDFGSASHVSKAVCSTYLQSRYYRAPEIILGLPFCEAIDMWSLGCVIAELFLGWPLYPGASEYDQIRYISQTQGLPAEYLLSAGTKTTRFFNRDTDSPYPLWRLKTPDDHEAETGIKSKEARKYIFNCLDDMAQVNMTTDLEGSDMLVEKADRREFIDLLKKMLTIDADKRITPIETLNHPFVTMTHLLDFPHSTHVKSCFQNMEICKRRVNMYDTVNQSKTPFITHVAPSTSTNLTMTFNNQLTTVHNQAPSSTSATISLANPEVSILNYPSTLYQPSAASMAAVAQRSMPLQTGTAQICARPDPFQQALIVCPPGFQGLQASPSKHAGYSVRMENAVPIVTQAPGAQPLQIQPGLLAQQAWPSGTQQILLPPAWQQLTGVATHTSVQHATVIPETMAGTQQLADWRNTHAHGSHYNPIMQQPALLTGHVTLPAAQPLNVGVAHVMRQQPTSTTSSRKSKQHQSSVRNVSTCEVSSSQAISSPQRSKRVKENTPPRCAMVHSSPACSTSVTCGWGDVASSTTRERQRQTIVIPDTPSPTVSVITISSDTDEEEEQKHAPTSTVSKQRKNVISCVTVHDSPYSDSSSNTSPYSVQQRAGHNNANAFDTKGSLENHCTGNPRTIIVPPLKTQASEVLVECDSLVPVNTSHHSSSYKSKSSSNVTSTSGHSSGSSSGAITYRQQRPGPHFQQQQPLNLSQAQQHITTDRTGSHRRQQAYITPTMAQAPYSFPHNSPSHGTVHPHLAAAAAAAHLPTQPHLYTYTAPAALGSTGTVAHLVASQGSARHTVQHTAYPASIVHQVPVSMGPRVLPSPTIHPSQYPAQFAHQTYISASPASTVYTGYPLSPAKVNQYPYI
UniProt Q8WTQ7, sequence (whole entry, looked up): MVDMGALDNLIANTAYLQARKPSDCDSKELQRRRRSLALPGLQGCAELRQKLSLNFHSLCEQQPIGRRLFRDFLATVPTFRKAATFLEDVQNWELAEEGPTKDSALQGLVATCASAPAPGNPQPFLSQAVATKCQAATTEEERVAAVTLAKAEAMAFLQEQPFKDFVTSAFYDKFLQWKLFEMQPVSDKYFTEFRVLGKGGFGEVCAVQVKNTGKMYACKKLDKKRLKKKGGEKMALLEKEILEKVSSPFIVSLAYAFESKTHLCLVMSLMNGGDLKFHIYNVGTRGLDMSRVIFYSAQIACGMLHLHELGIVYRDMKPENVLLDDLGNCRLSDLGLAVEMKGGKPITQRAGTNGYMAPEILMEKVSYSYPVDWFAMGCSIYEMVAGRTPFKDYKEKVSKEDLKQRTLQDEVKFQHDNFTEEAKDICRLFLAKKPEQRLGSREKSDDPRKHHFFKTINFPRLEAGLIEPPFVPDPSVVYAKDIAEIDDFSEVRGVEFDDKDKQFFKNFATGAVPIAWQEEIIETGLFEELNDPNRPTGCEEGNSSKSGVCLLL
UniProt Q16816, sequence (whole entry, looked up): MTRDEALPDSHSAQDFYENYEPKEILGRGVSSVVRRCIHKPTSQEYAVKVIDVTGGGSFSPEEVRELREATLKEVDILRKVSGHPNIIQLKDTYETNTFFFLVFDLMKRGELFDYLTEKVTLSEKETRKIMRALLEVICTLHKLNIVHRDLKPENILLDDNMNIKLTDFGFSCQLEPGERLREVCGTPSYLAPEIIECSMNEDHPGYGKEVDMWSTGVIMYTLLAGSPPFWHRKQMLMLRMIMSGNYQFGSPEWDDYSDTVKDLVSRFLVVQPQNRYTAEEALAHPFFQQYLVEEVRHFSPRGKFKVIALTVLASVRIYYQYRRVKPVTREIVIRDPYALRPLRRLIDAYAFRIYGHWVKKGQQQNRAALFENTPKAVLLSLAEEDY
UniProt O75582, sequence (whole entry, looked up): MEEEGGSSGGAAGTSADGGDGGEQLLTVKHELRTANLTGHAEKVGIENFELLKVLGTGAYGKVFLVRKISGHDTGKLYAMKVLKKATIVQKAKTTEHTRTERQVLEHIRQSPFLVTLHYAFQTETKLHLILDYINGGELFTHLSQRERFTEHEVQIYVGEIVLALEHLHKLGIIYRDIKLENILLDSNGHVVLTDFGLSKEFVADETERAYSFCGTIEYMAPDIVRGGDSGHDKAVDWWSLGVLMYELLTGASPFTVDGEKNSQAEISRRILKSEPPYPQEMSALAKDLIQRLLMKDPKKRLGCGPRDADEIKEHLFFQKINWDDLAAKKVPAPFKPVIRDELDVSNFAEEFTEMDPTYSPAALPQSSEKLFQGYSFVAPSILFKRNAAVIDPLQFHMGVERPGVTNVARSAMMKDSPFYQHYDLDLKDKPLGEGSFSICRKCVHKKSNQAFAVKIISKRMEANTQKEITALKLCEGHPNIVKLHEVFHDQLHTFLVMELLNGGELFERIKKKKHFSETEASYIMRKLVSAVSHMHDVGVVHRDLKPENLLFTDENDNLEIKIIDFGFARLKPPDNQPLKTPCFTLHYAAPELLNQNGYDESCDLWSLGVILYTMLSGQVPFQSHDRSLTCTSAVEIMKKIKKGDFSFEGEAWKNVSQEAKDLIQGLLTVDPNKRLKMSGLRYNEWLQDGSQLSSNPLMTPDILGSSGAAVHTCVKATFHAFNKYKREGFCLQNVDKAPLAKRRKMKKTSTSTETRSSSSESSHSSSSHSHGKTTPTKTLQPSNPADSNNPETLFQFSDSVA
UniProt O76039, sequence (whole entry, looked up): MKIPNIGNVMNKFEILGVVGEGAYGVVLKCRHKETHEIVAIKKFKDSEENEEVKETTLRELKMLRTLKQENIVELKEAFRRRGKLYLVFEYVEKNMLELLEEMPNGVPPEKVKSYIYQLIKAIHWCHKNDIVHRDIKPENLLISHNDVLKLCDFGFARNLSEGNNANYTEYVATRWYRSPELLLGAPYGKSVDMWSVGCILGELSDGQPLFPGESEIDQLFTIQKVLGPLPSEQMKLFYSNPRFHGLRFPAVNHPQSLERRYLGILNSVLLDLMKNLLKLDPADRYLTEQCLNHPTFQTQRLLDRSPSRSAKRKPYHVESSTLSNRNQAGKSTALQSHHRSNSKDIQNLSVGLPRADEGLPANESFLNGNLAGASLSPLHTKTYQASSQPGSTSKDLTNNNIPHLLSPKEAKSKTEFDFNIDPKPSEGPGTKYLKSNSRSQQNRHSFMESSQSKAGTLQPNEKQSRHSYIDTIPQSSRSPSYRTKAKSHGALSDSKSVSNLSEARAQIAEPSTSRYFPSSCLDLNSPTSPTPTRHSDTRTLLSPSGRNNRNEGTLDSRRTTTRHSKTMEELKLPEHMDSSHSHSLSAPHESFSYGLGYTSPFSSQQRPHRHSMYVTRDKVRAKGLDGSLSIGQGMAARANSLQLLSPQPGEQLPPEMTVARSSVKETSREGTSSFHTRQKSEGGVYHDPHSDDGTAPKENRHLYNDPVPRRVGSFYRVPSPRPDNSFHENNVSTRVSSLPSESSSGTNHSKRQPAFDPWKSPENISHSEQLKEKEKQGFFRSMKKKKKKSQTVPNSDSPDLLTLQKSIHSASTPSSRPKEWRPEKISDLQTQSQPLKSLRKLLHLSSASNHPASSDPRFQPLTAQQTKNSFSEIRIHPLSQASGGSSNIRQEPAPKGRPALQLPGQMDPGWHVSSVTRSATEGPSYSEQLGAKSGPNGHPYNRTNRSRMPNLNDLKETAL

Study 1 — Compound: c1ccc(-c2n[nH]c3c2oc2ccccc23)cc1; observed: enzyme activity; action: inhibitor; concentration: 0.5 µM; reference: control
target	remaining activity [%]
STK16 (Homo sapiens, UniProt O75716)	89.1
PHKG1 (Homo sapiens, UniProt Q16816)	91.5
RPS6KA5 (Homo sapiens, UniProt O75582)	94.9
RPS6KA6 (Homo sapiens, UniProt Q9UK32)	107
HIPK2 (Homo sapiens, UniProt Q9H2X6)	99.6
AXL (Homo sapiens, UniProt P30530)	101

Study 2 — method: RNAcompete; form: RNA; sample: in vitro; concentration: 20 nM; setting: 7-mer, probes averaged, single round; reference: mean of 7-mers; reading: higher = stronger binding
Target: PABPC1L2, full length, GST fusion (mouse, UniProt A0ABA7IW68)
Construct (chain): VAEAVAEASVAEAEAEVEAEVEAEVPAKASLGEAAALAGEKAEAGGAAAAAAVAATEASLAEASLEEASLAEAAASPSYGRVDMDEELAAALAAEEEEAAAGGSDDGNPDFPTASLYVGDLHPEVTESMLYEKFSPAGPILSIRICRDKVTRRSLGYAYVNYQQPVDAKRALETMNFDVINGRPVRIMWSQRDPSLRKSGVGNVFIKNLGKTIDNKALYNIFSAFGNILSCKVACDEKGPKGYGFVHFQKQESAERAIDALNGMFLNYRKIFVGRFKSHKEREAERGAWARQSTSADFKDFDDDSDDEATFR
Oligonucleotide	7-mer Z-score
CAUGUCA	-0.135
CGCGUUC	-0.365
ACAUUGA	0.187
CCGUUGG	-0.191
CAGCCGC	-0.391
GUGGUUU	-0.335
CUUAUUU	-0.318
UCCGAAG	-0.161

Study 3 — target: CCNA1, cyclin fold, Cln2 fusion (human); method: yeast growth competition, sequencing; sample: yeast; setting: weak parent motif; reference: not given; reading: higher = stronger binding
Starting sequence: SLBP docking peptide (human); ARYKRKLLINDFG; partner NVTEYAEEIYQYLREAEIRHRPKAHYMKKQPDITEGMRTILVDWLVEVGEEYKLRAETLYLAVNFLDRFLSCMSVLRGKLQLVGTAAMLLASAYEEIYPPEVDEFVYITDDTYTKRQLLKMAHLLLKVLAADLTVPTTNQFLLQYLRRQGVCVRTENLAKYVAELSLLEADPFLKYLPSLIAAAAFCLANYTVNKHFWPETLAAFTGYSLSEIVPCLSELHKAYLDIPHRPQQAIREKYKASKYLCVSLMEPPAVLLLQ
Change	normalised enrichment score
N10I	0.44
R5K L8F	0.299
L8H	0.323
R5A	0.527
K6N	0.568
R5D	0.338
I9L	0.536
R5G	0.253

Study 4 — observed: cell-free assay; method: competition with immobilised ligand; concentration: 0.1 µM
Compound: CS(=O)(=O)N1CCCC(NC(=O)[C@H](CCC2CCCCC2)NC(=O)c2ccc(CNC(=O)c3cnc4ccccn34)cc2)C1 (some centres unmarked)
target	remaining binding [%]
FLT3 (Homo sapiens, UniProt P36888, K663Q)	100
GRK7 (Homo sapiens, UniProt Q8WTQ7)	91
ANKK1 (Homo sapiens, UniProt Q8NFD2)	92
BRSK1 (Homo sapiens, UniProt Q8TDC3)	72
AXL (Homo sapiens, UniProt P30530)	96
MAPKAPK5 (Homo sapiens, UniProt Q8IW41)	100
Tyrosine-protein kinase ABL1, phosphorylated (ABL1, Homo sapiens, UniProt P00519, H396P)	100
CDKL5 (Homo sapiens, UniProt O76039)	100
CSNK1G3 (Homo sapiens, UniProt Q9Y6M4)	100
Tyrosine-protein kinase ABL1, phosphorylated (ABL1, Homo sapiens, UniProt P00519, T315I)	100

Some of these lines once more (study 1):
target	remaining activity [%]
HIPK2 (Homo sapiens, UniProt Q9H2X6)	99.6
AXL (Homo sapiens, UniProt P30530)	101
